Published values pooled from the literature.
Organism: Pseudomonas aeruginosa

CC(C)C[C@H](NC(=O)[C@H](CCCCN)NC(=O)C1CCC=CCCC(NC(=O)[C@H](CCCCN)NC(=O)[C@@H](N)CC(C)C)C(=O)N[C@@H](CCCCN)C(=O)N[C@@H](CC(C)C)C(=O)N[C@@H](CCCCN)C(=O)N2CCC[C@@H]2C(=O)NCC(=O)N[C@@H](CCCCN)C(=O)N[C@@H](CC(C)C)C(=O)N[C@@H](CCCCN)C(=O)N1)C(N)=O (stereo partly shown)
MIC (broth microdilution; ATCC 9027, Mueller-Hinton broth; 18 h, 37 °C): 8 µM

CN[C@H](CC(C)C)C(=O)N[C@H]1C(=O)N[C@@H](CC(N)=O)C(=O)N[C@H]2C(=O)N[C@H]3C(=O)N[C@H](C(=O)N[C@H](C(=O)O)c4cc(O)cc(O)c4-c4cc3ccc4O)[C@H](O)c3ccc(c(Cl)c3)Oc3cc2cc(c3O[C@@H]2O[C@H](CO)[C@@H](O)[C@H](O)[C@H]2O[C@H]2C[C@](C)(NCc3ccc(OCc4cn(CCCCC(=O)N[C@H](C(=O)N[C@@H](CCN)C(=O)N[C@H]5CCNC(=O)[C@H]([C@@H](C)O)NC(=O)[C@H](CCN)NC(=O)[C@H](CCN)NC(=O)[C@H](CC(C)C)NC(=O)[C@@H](CC(C)C)NC(=O)[C@H](CCN)NC5=O)[C@@H](C)O)nn4)c(OC)c3)[C@H](O)[C@H](C)O2)Oc2ccc(cc2Cl)[C@H]1O
MIC (broth microdilution; ATCC 25922, cation-adjusted Mueller-Hinton broth): 6 µM

CCCCCCCC(=O)N[C@@H](CCN)C(=O)N[C@H](C(=O)N[C@@H](CCN)C(=O)N[C@H]1CCNC(=O)[C@H]([C@@H](C)O)NC(=O)[C@H](CCN)NC(=O)[C@H](CCN)NC(=O)[C@H](CC(C)C)NC(=O)[C@@H](Cc2ccc(Br)cc2)NC(=O)[C@H](CCN)NC1=O)[C@@H](C)O
MIC (broth microdilution; colistin-resistant isolates): 0.125 to 0.25 µg/mL

CC(C)C[C@@H]1NC(=O)[C@@H](CC(C)C)NC(=O)[C@H](CCN)NC(=O)[C@@H](NC(=O)[C@H](CCN)NC(=O)[C@@H](NC(=O)CCCCN=[N+]=[N-])[C@@H](C)O)CCNC(=O)[C@H]([C@@H](C)O)NC(=O)[C@H](CCN)NC(=O)[C@H](CCN)NC1=O
MIC (broth microdilution; ATCC 35218, cation-adjusted Mueller-Hinton broth): 8 µM

CC[C@H](C)[C@H](NC(=O)[C@@H](CCCNC(=N)N)NC(=O)[C@H](CCCNC(=N)N)NC(=O)[C@H](Cc1c[nH]c2ccccc12)NC(=O)[C@H](Cc1c[nH]c2ccccc12)NC(=O)[C@H](CCCNC(=N)N)NC(=O)[C@@H]1CCCN1C(=O)[C@H](CCCNC(=N)N)NC(=O)[C@@H]1CCCN1C(=O)[C@H](CC(C)C)NC(=O)[C@H](Cc1ccc(O)cc1)NC(=O)[C@@H]1CCCN1C(=O)[C@@H]1CCCN1C(=O)[C@H](CCCCN)NC(=O)[C@H](CC(=O)O)NC(=O)[C@@H](N)C(C)C)C(=O)N[C@@H](Cc1ccc(O)cc1)C(=O)N[C@@H](CC(N)=O)C(=O)N[C@H](CCCNC(=N)N)C(N)=O
MIC (broth microdilution; DSM 1117; 18 h, 37 °C, 25% MHB2): 64 µg/mL

CC(=O)N[C@@H](CC(C)C)C(=O)N[C@H]1CSSC[C@@H](C(=O)N2CCC[C@H]2C(N)=O)NC(=O)[C@H]([C@@H](C)O)NC(=O)[C@H](C(C)C)NC(=O)[C@H]([C@@H](C)O)NC(=O)CNC(=O)[C@H](CC(C)C)NC(=O)[C@H](Cc2ccccc2)NC(=O)[C@H](Cc2ccc(O)cc2)NC(=O)[C@H](CC(C)C)NC(=O)[C@H](CCCCN)NC(=O)[C@H](Cc2ccccc2)NC(=O)[C@H](CCCNC(=N)N)NC(=O)[C@H](CCC(N)=O)NC(=O)[C@H](CC(C)C)NC(=O)[C@H](CCCCN)NC(=O)[C@@H]2CCCN2C(=O)[C@H](CCCCN)NC(=O)[C@H](C(C)C)NC(=O)[C@H](CCCCN)NC(=O)[C@H](Cc2ccc(O)cc2)NC(=O)[C@H]([C@@H](C)O)NC1=O
MIC (broth dilution; CGMCC strain; 24 h): 5 to 10 µM

CC[C@H](C)[C@H](NC(=O)[C@H](C)NC(=O)[C@@H](NC(=O)[C@H](CC(=O)O)NC(=O)[C@H](CCCCN)NC(=O)[C@H](CO)NC(=O)[C@@H](NC(=O)[C@H](CC(N)=O)NC(=O)[C@H](C)NC(=O)[C@@H](NC(=O)[C@H](CCC(=O)O)NC(=O)[C@H](CCCCN)NC(=O)[C@@H](NC(=O)[C@@H](NC(=O)[C@H](Cc1c[nH]cn1)NC(=O)[C@H](CCCCN)NC(=O)[C@@H](NC(=O)[C@H](CCCCN)NC(=O)[C@H](CCCCN)NC(=O)[C@@H](NC(=O)[C@H](CC(C)C)NC(=O)[C@H](CCCCN)NC(=O)[C@H](CC(N)=O)NC(=O)[C@H](Cc1ccccc1)NC(=O)[C@H](CCCNC(=N)N)NC(=O)[C@H](CCCCN)NC(=O)[C@H](CCCNC(=N)N)NC(=O)[C@H](Cc1ccccc1)NC(=O)CN)C(C)C)C(C)C)[C@@H](C)O)[C@@H](C)CC)[C@@H](C)O)C(C)C)C(C)C)C(=O)N[C@H](C(=O)N[C@@H](C)C(=O)NCC(=O)N[C@@H](CO)C(=O)NCC(=O)N[C@H](C(=O)N[C@@H](C)C(=O)N[C@H](C(=O)NCC(=O)N[C@@H](C)C(=O)N[C@@H](C)C(=O)N[C@@H](CCSC)C(N)=O)C(C)C)C(C)C)C(C)C
MIC (ATCC 27853, CAMHB with 10% mouse serum; 150 mM NaCl): 16 µg/mL

CC(=CC(C)CCCCC(=O)O)C1OC2C=CC1OC(=O)C=CC=CC=CC1OC3CC1OC(C=CCC1OC(CC(O)C1C)C(O)C(O)C=CCCC=CC2)C3C (stereo not shown)
MIC (DSM 117): > 20 µM

CN[C@H](CC(C)C)C(=O)N[C@H]1C(=O)N[C@@H](CC(N)=O)C(=O)N[C@H]2C(=O)N[C@H]3C(=O)N[C@H](C(=O)N[C@H](C(=O)O)c4cc(O)cc(O)c4-c4cc3ccc4O)[C@H](O)c3ccc(c(Cl)c3)Oc3cc2cc(c3O[C@@H]2O[C@H](CO)[C@@H](O)[C@H](O)[C@H]2O[C@H]2C[C@](C)(NCc3ccc(OCc4cn(CC(=O)N[C@H](C(=O)N[C@@H](CCN)C(=O)N[C@H]5CCNC(=O)[C@H]([C@@H](C)O)NC(=O)[C@H](CCN)NC(=O)[C@H](CCN)NC(=O)[C@H](CC(C)C)NC(=O)[C@@H](CC(C)C)NC(=O)[C@H](CCN)NC5=O)[C@@H](C)O)nn4)c(OC)c3)[C@H](O)[C@H](C)O2)Oc2ccc(cc2Cl)[C@H]1O
MIC (broth microdilution; ATCC 35218, cation-adjusted Mueller-Hinton broth): 6 µM

CC(=O)N[C@H](Cc1ccccc1F)C(=O)N[C@@H](CCN)C(=O)N[C@H](C(=O)N[C@@H](CCN)C(=O)N[C@H]1CCNC(=O)[C@H]([C@@H](C)O)NC(=O)[C@H](CCN)NC(=O)[C@H](CCN)NC(=O)[C@H](CC(C)C)NC(=O)[C@@H](Cc2ccccc2)NC(=O)[C@H](CCN)NC1=O)[C@@H](C)O
MIC (broth microdilution; colistin-resistant isolates): > 64 µg/mL

CC(C)C[C@@H]1NC(=O)[C@@H](CC(C)C)NC(=O)[C@H](CCN)NC(=O)[C@@H](NC(=O)[C@H](CCN)NC(=O)[C@@H](NC(=O)CCOCCOCCOCCN=[N+]=[N-])[C@@H](C)O)CCNC(=O)[C@H]([C@@H](C)O)NC(=O)[C@H](CCN)NC(=O)[C@H](CCN)NC1=O
MIC (broth microdilution; ATCC 10145, cation-adjusted Mueller-Hinton broth): 14 µM

N=C(N)NCCC[C@H](NC(=O)[C@H](CCCNC(=N)N)NC(=O)[C@H](Cc1ccccc1)NC(=O)[C@H](CO)NC(=O)[C@H](Cc1ccccc1)NC(=O)[C@H](Cc1c[nH]c2ccccc12)NC(=O)[C@H](Cc1ccccc1)NC(=O)[C@H](CO)NC(=O)[C@H](Cc1ccccc1)NC(=O)[C@H](CCCNC(=N)N)NC(=O)[C@@H](N)CCCNC(=N)N)C(N)=O
MIC (broth microdilution; 27853, Mueller-Hinton broth; 24 h, 37 °C, lowest concentration, 95% inhibition, with: BSA): 128 µM

CC[C@H](C)[C@H](NC(=O)[C@@H](CCCNC(=N)N)NC(=O)[C@H](CCCNC(=N)N)NC(=O)[C@@H]1CCCN1C(=O)[C@@H]1CCCN1C(=O)[C@H](Cc1c[nH]c2ccccc12)NC(=O)[C@@H]1CCCN1C(=O)[C@H](CCCNC(=N)N)NC(=O)[C@@H]1CCCN1C(=O)[C@H](CC(C)C)NC(=O)[C@H](Cc1ccc(O)cc1)NC(=O)[C@@H]1CCCN1C(=O)[C@@H]1CCCN1C(=O)[C@H](CCCCN)NC(=O)[C@H](CC(=O)O)NC(=O)[C@@H](N)C(C)C)C(=O)N[C@@H](Cc1ccc(O)cc1)C(=O)N[C@@H](CC(N)=O)C(=O)N[C@H](CCCNC(=N)N)C(N)=O
MIC (broth microdilution; DSM 1117; 18 h, 37 °C, 25% MHB2): 64 µg/mL

CC(C)C[C@@H]1NC(=O)[C@@H](CC(C)C)NC(=O)[C@H](CCN)NC(=O)[C@@H](NC(=O)[C@H](CCN)NC(=O)[C@@H](NC(=O)CN=[N+]=[N-])[C@@H](C)O)CCNC(=O)[C@H]([C@@H](C)O)NC(=O)[C@H](CCN)NC(=O)[C@H](CCN)NC1=O
MIC (broth microdilution; ATCC 35218, cation-adjusted Mueller-Hinton broth): 63 µM

CCn1c(-c2ccc(OC)cc2)c(-c2ccc(OC)cc2)n(Cc2c(C)cc(C)cc2C)c1=[Se]
MIC (broth microdilution; carbapenem-resistant BAA-2108; 24 h): > 40 µM

CC[C@H](C)[C@H](NC(=O)[C@@H](CCCNC(=N)N)NC(=O)[C@H](CCCNC(=N)N)NC(=O)[C@H](CC(N)=O)NC(=O)[C@H](Cc1c[nH]c2ccccc12)NC(=O)[C@H](CCCNC(=N)N)NC(=O)[C@@H]1CCCN1C(=O)[C@H](CCCNC(=N)N)NC(=O)[C@@H]1CCCN1C(=O)[C@H](CC(C)C)NC(=O)[C@H](Cc1ccc(O)cc1)NC(=O)[C@@H]1CCCN1C(=O)[C@@H]1CCCN1C(=O)[C@H](CCCCN)NC(=O)[C@H](CC(=O)O)NC(=O)[C@@H](N)C(C)C)C(=O)N[C@@H](Cc1ccc(O)cc1)C(=O)N[C@@H](CC(N)=O)C(=O)N[C@H](CCCNC(=N)N)C(N)=O
MIC (broth microdilution; DSM 1117; 18 h, 37 °C, 25% MHB2): 128 µg/mL

Some of these lines once more:
CC(=O)N[C@@H](CC(C)C)C(=O)N[C@H]1CSSC[C@@H](C(=O)N2CCC[C@H]2C(N)=O)NC(=O)[C@H]([C@@H](C)O)NC(=O)[C@H](C(C)C)NC(=O)[C@H]([C@@H](C)O)NC(=O)CNC(=O)[C@H](CC(C)C)NC(=O)[C@H](Cc2ccccc2)NC(=O)[C@H](Cc2ccc(O)cc2)NC(=O)[C@H](CC(C)C)NC(=O)[C@H](CCCCN)NC(=O)[C@H](Cc2ccccc2)NC(=O)[C@H](CCCNC(=N)N)NC(=O)[C@H](CCC(N)=O)NC(=O)[C@H](CC(C)C)NC(=O)[C@H](CCCCN)NC(=O)[C@@H]2CCCN2C(=O)[C@H](CCCCN)NC(=O)[C@H](C(C)C)NC(=O)[C@H](CCCCN)NC(=O)[C@H](Cc2ccc(O)cc2)NC(=O)[C@H]([C@@H](C)O)NC1=O
MIC (broth dilution; CGMCC strain; 24 h): 5 to 10 µM
